Measurements of several laboratories.
Compare with care: the assays were run in different laboratories. Several values in a cell are separate wells, animals, samples, runs or records. ± gives the spread as reported.
uncharacterized protein: uncharacterized protein (Anopheles coluzzii, UniProt A0A6E8VQK1)

O=P(O)(O)OC[C@H]1C[C@](O)(CO)[C@@H](O)[C@H](O)[C@@H]1O gave an apparent Vmax of 2.1 ± 0.2 µM/min (2-epi-valiolone synthase (Actinosynnema mirum, UniProt C6WFL3); phosphate release; 10 µM).
With O=C(Nc1cccnn1)N1CCC(=Cc2cccc(Oc3ccc(C(F)(F)F)cn3)c2)CC1 the inhibition was 13% (IP3 receptor, rat; binding; 50 µM, together with: [3H]IP3).
COc1ccc(N2C(=O)N(c3c(C)cccc3Cl)Cc3cnc(Nc4ccc(C5CCN(C)CC5)cc4OC)nc32)nc1 has an inhibition of 10% (PLK1 (Homo sapiens, UniProt P53350); kinase activity; 0.5 µM).
COc1cc2c(Oc3ccc4[nH]c(C)cc4c3F)ccnc2cc1OCC1(N)CC1 — result for “grade 1 or 2 AST elevation”: 0% (paediatric recurrent refractory sarcoma; 10 mg).
With C[C@H]1CN(c2n[nH]c3nc(N[C@H]4CC[C@H](NS(=O)(=O)CCC(F)(F)F)CC4)ncc23)CCO1 the relative abundance was 1.13 (Prohibitin-2 (PHB2, Homo sapiens, UniProt Q99623); inhibitor, Kinobeads competition profiling; 20 µM; reference: vehicle).
With CC(CCn1ccc(-c2ccc(-c3cn(Cc4ccccn4)nn3)cc2)cc1=O)(C(=O)NO)S(C)(=O)=O (stereo not drawn) the residence time was roughly 3 fold (UDP-3-O-acyl-N-acetylglucosamine deacetylase (Pseudomonas aeruginosa, UniProt P47205); reference: 1).
For c1cncc([C@@H]2CCCCN2)c1, the koff was 2010 s⁻¹ (Chrnd/Chrna1/Chrne (Mus musculus, UniProt P02716+P04756+P20782, G173K/S470W); single-channel kinetics; K chain side site).
CN1CCN(c2cc(-c3ccncc3)c(-c3ccc4ccccc4c3)nn2)CC1 has an inhibition of 32.1% (FFAR3 (Homo sapiens, UniProt O14843); antagonist, FLIPR; 10 µM).
The Hill slope of CC(C)C[C@H](NC(=O)[C@@H](NC(=O)N[C@@H](Cc1ccccc1)C(=O)O)[C@@H]1CCN=C(N)N1)C(=O)N[C@H](C=O)Cc1ccccc1 is reported as -1.14 (Cathepsin G (CTSG, Homo sapiens, UniProt P08311)).
N[C@@H](Cc1ccc(O)c(I)c1)C(=O)O gave a kcat of less than 0.03 s⁻¹ (Iodotyrosine deiodinase (Haliscomenobacter hydrossis, UniProt F4KU78, R38E); deiodination; pH 7.4, 25 °C, together with: dithionite).
CN(C(=O)n1cnc(-c2ccc[n+]([O-])c2)c1)C1CCCCC1 has a fold change of -16.5 (Signal peptidase complex catalytic subunit SEC11A (Sec11a, Rattus norvegicus, UniProt P42667); enzyme activity, ABPP; rat, brain; oral, 30 mg/kg/day, 28 days; reference: vehicle).
For CC[C@@H](C)[C@@H](NC(=O)[C@@H](Cc1ccc(O)cc1)NC(=O)[C@H]1CCCN1C(=O)[C@@H](CCCNC(=N)N)NC(=O)[C@H](N)Cc1c[nH]cn1)C(=O)N[C@H](C)C(=O)N[C@H](Cc1c[nH]cn1)C(=O)N[C@H](CCCNC(=N)N)C(=O)N[C@H](CCCCNC(=O)c1cccc(S(=O)(=O)F)c1)C(=O)N[C@H](Cc1ccc(O)cc1)C(=O)N[C@H](CO)C(=O)N[C@H](Cc1ccccc1)C(N)=O, “surface TFRC expression” read 0.741 (Transferrin receptor protein 1 (Tfrc, Mus musculus, UniProt Q62351); flow cytometry; DC2.4; 48 h, pH 6, replicate 3, unit not given; reference: 0 h).
COC(=O)[C@@]1(O)C[C@H]2O[C@]1(C)n1c3ccccc3c3c4c(c5c6ccccc6n2c5c31)C(=O)NC4 gave a kinase activity of 90.6% and 126% and 96.3% (MAPK3 (Homo sapiens, UniProt P27361); ADP-Glo; 1 µM, together with: MBP substrate).
CC(C)C[C@H](NC(=O)[C@H](Cc1ccccc1)NC(=O)[C@@H]1CCCN1C(=O)[C@H](CCCNC(=N)N)NC(=O)[C@H](CCC(=O)O)NC(=O)[C@@H]1CCCN1C(=O)[C@H](CO)NC(=O)[C@@H](N)CCC(=O)O)C(=O)O gave a koff of 0.354 s⁻¹ (Epithelial sodium channel subunit alpha (Homo sapiens, UniProt P37088); binding, bio-layer interferometry).
O=C(O)Cc1c[nH]cn1 has a fraction bound of 0.00025 (SLC6A6 (Homo sapiens, UniProt P31641, Y138A); binding, microscale thermophoresis; 43.2 nM, fitted curve; higher = more binding).
With CC1=NCCc2c1[nH]c1cc(O)ccc21 the remaining activity was 13.9% (DCLRE1A (Homo sapiens, UniProt Q6PJP8); exonuclease activity, fluorescence; 10 µM, 80 min, together with: 8 nM DNA substrate).
CC[C@H](C)[C@H](NC(=O)CNC(=O)[C@@H](N)CCCCN)C(=O)N[C@@H](CC(C)C)C(=O)N[C@@H](CCCCN)C(=O)N[C@@H](CCCNC(=N)N)C(=O)N[C@@H](CCC(=O)O)C(=O)N[C@@H](CCCCN)C(=O)N[C@@H](CCCNC(=N)N)C(=O)N[C@@H](CC(C)C)C(=O)N[C@@H](CCCNC(=N)N)C(=O)N[C@@H](CCCNC(=N)N)C(=O)N[C@@H](CCCCN)C(=O)N[C@@H](CC(N)=O)C(=O)N[C@H](C(=O)N[C@@H](Cc1c[nH]cn1)C(=O)N[C@@H](Cc1c[nH]c2ccccc12)C(=O)N1CCC[C@H]1C(=O)N[C@@H](CCC(=O)O)C(=O)N[C@@H](CCC(=O)O)C(=O)NCC(=O)N[C@@H](CCCCN)C(=O)N[C@@H](CC(C)C)C(=O)N[C@@H](CCCNC(=N)N)C(=O)N[C@@H](CCC(=O)O)C(=O)N[C@@H](Cc1ccc(O)cc1)C(=O)N[C@@H](Cc1ccccc1)C(=O)N[C@@H](Cc1ccc(O)cc1)C(=O)N[C@@H](Cc1ccccc1)C(=O)N[C@@H](CCC(=O)O)C(=O)N[C@@H](CC(C)C)C(=O)N[C@@H](CC(=O)O)C(=O)N[C@@H](CCC(=O)O)C(=O)N[C@@H](C)C(=O)N[C@@H](CCC(=O)O)C(=O)N[C@@H](CCCNC(=N)N)C(=O)N[C@H](C(=O)N[C@@H](CC(N)=O)C(=O)N[C@H](C(=O)O)C(C)C)C(C)C)C(C)C: “enthalpy change ΔH” -22.4 ± 1.9 kcal/mol (PPP1CA (Homo sapiens, UniProt P62136); binding, isothermal titration calorimetry; concentration not given, 25 °C, PP1α residues 7-330).
For NCCO, the Km was 31.4 ± 5.7 µM (eutB/eutC (Salmonella typhimurium, UniProt P19264+P19265); substrate, NADH-coupled; Salmonella enterica).
CC(C)[C@@H]1NC(=O)[C@H](C)OC(=O)[C@@H](C(C)C)NC(=O)[C@@H](C(C)C)OC(=O)[C@H](C(C)C)NC(=O)[C@H](C)OC(=O)[C@@H](C(C)C)NC(=O)[C@@H](C(C)C)OC(=O)[C@H](C(C)C)NC(=O)[C@H](C)OC(=O)[C@@H](C(C)C)NC(=O)[C@@H](C(C)C)OC1=O: “Luke-S1 reporter signal” 18.5 ± 5.6% (Metalloendopeptidase OMA1, mitochondrial (OMA1, Homo sapiens, UniProt Q96E52); protease activity; concentration not given; reference: untreated cells).
[2H]c1c([2H])c([C@]2([2H])CCCN2C(=O)C(C)(C)Oc2ccc3cn[nH]c3c2)c([2H])c([2H])c1C([2H])([2H])[2H] gave a remaining binding of 97% (BMPR1B (Homo sapiens, UniProt O00238); KINOMEscan; 1 µM; reference: DMSO control).
The inhibition of CN(C(=O)n1cnc(-c2ccc[n+]([O-])c2)c1)C1CCCCC1 is reported as -2% (ADRB3 (Homo sapiens, UniProt P13945); radioligand binding; 50 µM).
With O=C(Cc1cccs1)N[C@@H]1C(=O)N2C(C(=O)O)=C(/C=C/c3ccc([N+](=O)[O-])cc3[N+](=O)[O-])CS[C@H]12 the Km was 16 ± 1 µM (blaNDM-1 (Klebsiella pneumoniae, UniProt C7C422, C208S); hydrolysis, substrate).
For O=C(Nc1cnccc1Cl)N1CCN(Cc2ccc3c(c2)OC(F)(F)O3)CC1, “inhibition of binding” read 1% (GABBR1 (Homo sapiens, UniProt Q9UBS5); radioligand binding; 10 µM, together with: [3H]CGP-54626).
The efficacy of CO/N=C1\C[C@]2(C[C@@H]3C[C@@H](C/C=C(\C)C[C@@H](C)/C=C/C=C4\CO[C@@H]5[C@H](O)C(C)=C[C@@H](C(=O)O3)[C@]45O)O2)O[C@H](/C(C)=C/C(C)C)[C@H]1C is reported as 8.79 ± 1.35% (Nuclear receptor subfamily 1 group I member 3 (Homo sapiens, UniProt Q14994); coactivator recruitment; concentration not given, together with: 0.1 µM CITCO).
C[C@@H](O)[C@H](NC(=O)c1ccc(C#Cc2ccccc2)cc1)C(=O)NO — result for “-TΔS of binding”: -5.1 kcal/mol (UDP-3-O-acyl-N-acetylglucosamine deacetylase (Pseudomonas aeruginosa, UniProt P47205, C40S); ITC; concentration not given, 298 K).
For CNC(=O)Oc1ccccc1OC(C)C, the remaining activity was 98.3% (uncharacterized protein; enzyme activity, inhibitor; Sf9 cell homogenate; 0.1147 µM, 0.1667 h, together with: α-naphthyl acetate substrate; reference: no inhibitor).
For Cc1nn(C)cc1-c1nc2c(N3CCN(Cc4ccc(Cl)cc4)CC3)c(Cl)cnc2[nH]1, the remaining binding was 85% (ULK3 (Homo sapiens, UniProt Q6PHR2); KINOMEscan; 1 µM; reference: DMSO control).
For CN(C)CCNc1nc2cc(O)ccc2c2c1C(=O)c1ccccc1-2.Cl.Cl, the RLuc luminescence was 0.413 (Protein transport protein Sec61 subunit alpha isoform 1 (Homo sapiens, UniProt P61619); reporter gene, Dual-Glo luciferase; HEK293 with CD4 signal peptide-FLuc; unit not given; reference: mock).
For O=C(c1ccc(Cl)cc1)N1CCN2C(=O)N(OC(=O)N3CCOc4ccccc43)C(=O)C2C1 (stereo not drawn), the median ratio was 1.1 (Probable serine carboxypeptidase CPVL (CPVL, Homo sapiens, UniProt Q9H3G5); enzyme activity, inhibitor, MS-based ABPP; SW-620 conditioned medium; 10 µM, 1 h, 37 °C; reference: compound over DMSO, lower = stronger inhibition).
With O=C(O)COP(=O)(O)O the Ki ratio was 3070 (TPI1 (Saccharomyces cerevisiae, UniProt P00942, Y208F); enzyme activity, competitive inhibitor, GPDH/NADH-coupled; pH 6.4, 25 °C, ionic strength 0.1 NaCl, together with: glyceraldehyde 3-phosphate substrate; reference: mutant over wild type).
For COc1cc(N)c(Cl)cc1C(=O)NC1CN2CCC1CC2 (stereo not drawn), “log2 fold change” read -0.024 (G-protein coupled receptor 87 (GPR87, Homo sapiens, UniProt Q9BY21); β-arrestin recruitment, TANGO luminescence, measured: GPR87; concentration not given; reference: basal luminescence).
COc1cc(Nc2ncc(F)c(Nc3ccc4c(n3)NC(=O)C(C)(C)O4)n2)cc(OC)c1OC has an inhibition of 0% (CDK19 (Homo sapiens, UniProt Q9BWU1); kinase binding, KINOMEscan; 10 µM).
O=C1CC(C(=O)O)NC(=O)N1 (stereo not drawn) gave a kred of 100 ± 1.9 s⁻¹ (Dihydroorotate dehydrogenase A (fumarate) (pyrDA, Lactococcus lactis subsp. cremoris, UniProt A2RJT9, V133T); flavin reduction, stopped-flow; Lactococcus lactis; 25 °C).
N[C@@H](Cc1c[nH]c2ccccc12)C(=O)O: binding “no binding” (Germin-like protein subfamily 3 member 1 (GLP1, Arabidopsis thaliana, UniProt P94040); microscale thermophoresis; Arabidopsis protoplast extract; concentration not given).
With CCOC(=O)CC(SP(=O)(OC)OC)C(=O)OCC (stereo not drawn) the remaining activity was 2.7% (uncharacterized protein; enzyme activity, inhibitor; Sf9 cell homogenate; 11.47 µM, 0.1667 h, together with: α-naphthyl acetate substrate; reference: no inhibitor).
With Cc1cc(N2CCNCC2)nc2ccccc12 the Emax was less than 10% (CHRM3 (Homo sapiens, UniProt P20309); ERK1/2 phosphorylation, agonist; CHO cells).

For quick reference, copied from above:
For O=C(c1ccc(Cl)cc1)N1CCN2C(=O)N(OC(=O)N3CCOc4ccccc43)C(=O)C2C1 (stereo not drawn), the median ratio was 1.1 (Probable serine carboxypeptidase CPVL (CPVL, Homo sapiens, UniProt Q9H3G5); enzyme activity, inhibitor, MS-based ABPP; SW-620 conditioned medium; 10 µM, 1 h, 37 °C; reference: compound over DMSO, lower = stronger inhibition).
With O=C(O)COP(=O)(O)O the Ki ratio was 3070 (TPI1 (Saccharomyces cerevisiae, UniProt P00942, Y208F); enzyme activity, competitive inhibitor, GPDH/NADH-coupled; pH 6.4, 25 °C, ionic strength 0.1 NaCl, together with: glyceraldehyde 3-phosphate substrate; reference: mutant over wild type).
For COc1cc(N)c(Cl)cc1C(=O)NC1CN2CCC1CC2 (stereo not drawn), “log2 fold change” read -0.024 (G-protein coupled receptor 87 (GPR87, Homo sapiens, UniProt Q9BY21); β-arrestin recruitment, TANGO luminescence, measured: GPR87; concentration not given; reference: basal luminescence).
